Experimental data gathered from unrelated publications.
Every numbered part comes from another study and shows a few of its results, in no order. Substitutions count along the parent as printed.

Series 1
Target: CCND1, cyclin fold, Cln2 fusion (human)
Technique: yeast growth competition, sequencing
Sample: yeast
Notes: weak parent motif
Relative to: not given
Reading: higher = stronger binding
Parent: ITGB3BP docking peptide (human); MPVKRSLKLDGLL; partner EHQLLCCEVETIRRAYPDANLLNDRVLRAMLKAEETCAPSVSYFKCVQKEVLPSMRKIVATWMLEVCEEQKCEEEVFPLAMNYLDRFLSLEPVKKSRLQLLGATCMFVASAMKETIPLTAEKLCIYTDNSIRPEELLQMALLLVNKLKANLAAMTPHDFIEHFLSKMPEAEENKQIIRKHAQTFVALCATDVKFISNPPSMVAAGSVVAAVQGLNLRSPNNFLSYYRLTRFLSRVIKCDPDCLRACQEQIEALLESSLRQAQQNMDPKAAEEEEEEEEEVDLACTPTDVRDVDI
| Variant | normalised enrichment score |
| --- | --- |
| APVKRSLKLDGLL [M1A] | -0.23 |
| MPVKRSLKLDGLA [L13A] | -0.0565 |
| MPVKRSLKLDALL [G11A] | 0.0635 |
| MPVKRALKLDGLL [S6A] | 0.285 |
| MPAKRSLKLDGLL [V3A] | 0.606 |
| MPVKKSLKLDGLL [R5K] | -0.0275 |
| MPVKRSLKLAGLL [D10A] | -0.047 |

Series 2
Target: Histone acetyltransferase KAT6A, winged helix 2, GST fusion (KAT6A, Homo sapiens, UniProt Q92794, residues 85-181)
Technique: protein binding microarray
Molecule type: double-stranded DNA, one strand shown
Sample: in vitro
Tested at: not given
Notes: 8-mer, flanks averaged, mean of 2 arrays, mostly near background
Relative to: not given
Reading: higher = stronger binding
Residues (chain): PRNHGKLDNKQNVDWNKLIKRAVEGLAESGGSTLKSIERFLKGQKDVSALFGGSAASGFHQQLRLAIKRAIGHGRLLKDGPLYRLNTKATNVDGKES
| Strand | E-score |
| --- | --- |
| ACGTGCCA | -0.168 |
| CTAGTTGA | -0.00831 |
| CTCTCAGA | -0.0476 |
| ACTCGCGG | 0.147 |
| AGTGTGGC | 0.0929 |
| ATTGGTCC | -0.138 |
| CCTCCCCG | 0.19 |
| ACTCGCTG | 0.174 |
| AAGTGGAA | -0.0332 |
| AAACGATC | 0.0702 |
| GAGCACAC | -0.0965 |
| CCTTTCAG | 0.036 |
| ACGATAAC | -0.111 |
| AATCTTCA | 0.0505 |
| ACCACTGA | -0.0305 |
| AAGATTAC | -0.0402 |
| CCCTCAGG | -0.0277 |
| CTAACCGA | -0.0899 |
| CACATCAG | -0.174 |
| CTACAGGC | -0.108 |
| GGCCCTGA | -0.035 |
| AGAGGCAG | -0.00936 |
| CTTAGGCC | -0.0199 |
| GCGCCCTA | 0.0421 |
| ACTATCAC | -0.118 |

Series 3
Target: Sal-like protein 4, full length isoform A (SALL4, Homo sapiens, UniProt Q9UJQ4, residues 1-1053)
Sequence of UniProt Q9UJQ4 (whole entry, looked up): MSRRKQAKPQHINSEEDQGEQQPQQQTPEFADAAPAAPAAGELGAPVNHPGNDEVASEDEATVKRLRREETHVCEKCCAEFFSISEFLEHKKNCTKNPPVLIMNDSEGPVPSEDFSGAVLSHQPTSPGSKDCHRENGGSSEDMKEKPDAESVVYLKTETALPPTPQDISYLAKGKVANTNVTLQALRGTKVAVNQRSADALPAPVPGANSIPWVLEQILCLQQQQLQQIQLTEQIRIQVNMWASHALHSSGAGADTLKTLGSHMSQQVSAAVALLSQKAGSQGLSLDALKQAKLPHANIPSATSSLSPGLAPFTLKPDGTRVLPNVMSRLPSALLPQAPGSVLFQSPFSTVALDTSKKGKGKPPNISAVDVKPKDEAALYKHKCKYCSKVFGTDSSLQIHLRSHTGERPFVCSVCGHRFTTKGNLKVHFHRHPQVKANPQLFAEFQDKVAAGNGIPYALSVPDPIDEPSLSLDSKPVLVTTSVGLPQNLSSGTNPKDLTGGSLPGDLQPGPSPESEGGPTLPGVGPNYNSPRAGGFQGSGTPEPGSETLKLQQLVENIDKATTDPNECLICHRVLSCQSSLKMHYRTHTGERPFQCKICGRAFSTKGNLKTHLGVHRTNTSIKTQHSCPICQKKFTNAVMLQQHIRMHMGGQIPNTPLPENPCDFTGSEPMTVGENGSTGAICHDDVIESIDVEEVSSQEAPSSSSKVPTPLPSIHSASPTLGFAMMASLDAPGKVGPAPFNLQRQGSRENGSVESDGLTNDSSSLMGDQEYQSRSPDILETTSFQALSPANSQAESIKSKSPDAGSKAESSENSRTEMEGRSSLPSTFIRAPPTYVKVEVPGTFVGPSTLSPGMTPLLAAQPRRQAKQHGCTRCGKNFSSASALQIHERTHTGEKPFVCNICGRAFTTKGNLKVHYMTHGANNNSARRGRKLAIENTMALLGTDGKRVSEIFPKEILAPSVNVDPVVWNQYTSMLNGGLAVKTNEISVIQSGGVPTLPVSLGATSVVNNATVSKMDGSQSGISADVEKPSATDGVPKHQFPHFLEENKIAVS
Technique: universal PBM
Molecule type: double-stranded DNA, one strand shown
Sample: in vitro
Tested at: 600 nM
Notes: 8-mer, flanks averaged, mean of replicates
Reading: higher = stronger binding
| Strand | E-score |
| --- | --- |
| CCCCCAGG | -0.302 |
| CCAAATTA | 0.269 |
| ATTATTGG | 0.277 |
| ACGCTCAG | -0.16 |
| AGGCGGTG | -0.295 |
| GAGGGACA | -0.209 |
| GCGAGTCC | -0.201 |
| ATCGATGC | 0.074 |
| ATGTTTAG | 0.206 |
| AACGGATA | 0.088 |
| AAATTAGC | 0.0825 |
| AATATCCA | 0.301 |
| TTCATCAA | 0.248 |
| AATGTTGA | 0.217 |
| GGTGAGTA | -0.0387 |
| CGGAATCA | 0.0318 |
| CGATCCTA | -0.135 |
| CGCAGAAC | -0.0731 |
| ACAGGCAA | 0.0791 |
| GACATGGC | -0.0775 |
| TAAACGTA | 0.273 |
| AAGATTTG | 0.124 |
| GGAGCGCA | -0.335 |
| CCGAATAA | 0.226 |
| TAGGGCGA | -0.0258 |

Series 4
Target: RNA binding protein fox-1 homolog 2, RRM domain, GST-SBP tag (RBFOX2, Homo sapiens, UniProt O43251-10, residues 100-194)
Technique: RNA Bind-n-Seq
Molecule type: RNA
Sample: in vitro
Tested at: 365 nM
Notes: natural RNA segment, single round, ends assumed
Relative to: no-protein control
Reading: higher = stronger binding
All sequences stand within: GGGAGUUCUACAGUCCGACGAUC … UGGAAUUCUCGGGUGCCAA
Target sequence (chain): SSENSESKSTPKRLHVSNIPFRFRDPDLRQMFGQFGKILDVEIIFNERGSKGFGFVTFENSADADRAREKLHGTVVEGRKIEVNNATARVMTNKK
| Strand | RBNS enrichment (R) |
| --- | --- |
| CCCGUACAAGCCACGCUGGCUGCUCAAGUACUAGCACCCCUCUCAGGCCCGACCUUGAUGUCCACCUCCACAGCCUGGGCUUCUGCCUGGAGCCUGGCAGCCACAGACAU | 0.423 |
| UGAAGGGUGAGCAUAACCUUGUGAACCAGCACUAGCUUGUUCCAAGCUGGAAUUUAUCUAAUCUAUUUUUGUGUUUAAAAAAGCUGUACCUACCAAAUAAAUAAAUAGUU | 0.366 |
| AUUGUUACCUCCUGUUGUUUUGUUACUGAGUAAGAUAACUUUGUUGAAUAAAGACCUUUAUCCCCAAGGUCUCUGUCUAUUUCCUGGGUGUCAUGGUCUGGGGCUAGACU | 0.717 |
| UGGGUCAUAACUGGGACUCCAUCUUUGCUGGGGAAAGUCUCCCACCUAGGGAAUGGUUACCACUCCAUGUAAAGAAAACUCCCUCAUGCGUCCUCUGGGACCUUCUUAGA | 0.362 |
| GUCUGCUCCUAGCCUGUGCUCUGCCAGCAGCACAGACAUCUGCUCCAUCAGACCUCUUCCAUUUUGCACAGGGAGUGCAGGAGGUGAAUGUUCACUUUCUGUUCUCCAGU | 1.07 |
| AGUUUUCAAAAGUUCUUAAAGGCAAGAGUGAAUUUCUGUGGAUUUUACUGGUCCCAGCUUUUAGGUUCUUUAAGACACUAACAGGACUACAUAGAGGCUUUUUCAGCAUU | 0.548 |
| AUAUUUUGAAAUAUAUUUGAUAUAGUACUCUGCCAUUUUCAUCAUGUUAACUUUCAGUGUCACCAUCUUACAGCUUAGGGGCAUUUGCAUUCCCCUGACAAAGGUAUCAU | 0.312 |
| GUGUACGUAUCAUUUCUAAUUUUAAGUUAUUUUAAAAAAAUUCAUCAUAUGAAUGUUCUUGGUUCCCAUUGUGACGAUUAUUUAUUUCUGUAAAAUUUGUUUAGAAGUAC | 2.37 |

Series 5
Target: Ras GTPase-activating protein-binding protein 1, RRM domain (G3BP1, Homo sapiens, UniProt Q13283)
Sequence of UniProt Q13283 (whole entry, looked up): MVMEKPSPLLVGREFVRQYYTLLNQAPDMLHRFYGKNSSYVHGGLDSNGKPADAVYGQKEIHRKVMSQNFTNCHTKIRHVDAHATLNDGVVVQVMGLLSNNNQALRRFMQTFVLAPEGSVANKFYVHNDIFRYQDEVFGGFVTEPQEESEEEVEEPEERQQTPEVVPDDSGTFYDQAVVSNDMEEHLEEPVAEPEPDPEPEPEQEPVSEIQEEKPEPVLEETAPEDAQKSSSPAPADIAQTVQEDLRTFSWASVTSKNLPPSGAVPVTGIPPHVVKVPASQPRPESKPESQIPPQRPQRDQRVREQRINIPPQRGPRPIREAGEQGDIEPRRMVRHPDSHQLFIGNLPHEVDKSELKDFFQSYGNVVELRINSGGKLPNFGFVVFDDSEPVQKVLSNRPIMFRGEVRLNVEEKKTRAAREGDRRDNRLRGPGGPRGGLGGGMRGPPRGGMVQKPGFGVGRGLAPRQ
Technique: RNA Bind-n-Seq
Molecule type: RNA
Sample: in vitro
Tested at: 1 µM
Notes: whole 134-nt RNA, ends assumed
Added: 150 mM KCl
Relative to: input library
Reading: higher = stronger binding
All sequences stand within: GGGAGUUCUACAGUCCGACGAUC … UGGAAUUCUCGGGUGUCAAGG
| Strand | log2 enrichment |
| --- | --- |
| UGGCCCUGGUGGCAUGCGGGGAGCAAGAGGUGGCCUCAUGGAUCGUGGUGGUCCCGGUGGAAUGUUCAGAGGUGGCCGUGGUGGAGACAG | 0.995 |
| UGUCCUGCAGGGUCGGACCGAUACCUGGAGAGCCGCGAUGCCUCUCGACUGAGUGGCCGGGACCCCUCCUCAUGGACAGUCGAGGAUGUG | -0.778 |
| AGUCCUGUGCUACACAUCGUAUGUACCGAAUCGGGUUUUUGGUUUUUGGUUUUUGGGGAAAGUAUUAUGUUACGCCGUUCGGAUCUGCAC | -0.242 |
| UGGUGGACAGAAGGCACUGCAGCCUGAAAUGGCAGAGUCUGGUGCUGACGAUCCGCGAGAAGAUCAAUGCUGCCAUCCAGGACAUGCCAG | -0.488 |
| ACCCUGCAGGUGGGCAUCUUUGGGAAGUGGGGCAAGGGGGGGAUAGGGAGGGGGGUAACACUUUGGGAACAGGUGGUCCCAGGUCGUUUC | -0.48 |
| UCCUCAAGUCCUGUGCUACACAUCGUAUGUACCGAAUCGGCGGCGGGGCGGGAAAGUAUUAUGUUACGCCGUUCGGAUCUGCACUUCCAG | -0.219 |
| CACAGACAACACGCACCCACACAGACACAGGGGGAAGGGGUUGGGAUGGGGACAGGGUGCACAGCAGGGCGGGGUAGGACCCCAGCCCCU | -0.0405 |
| UAACUUUAGAGGAGGAUCUGAUGGAUAUGGCAGUGGACGUGGAUUUGGGGAUGGCUAUAAUGGAUAUGGAGGAGGACCUGGAGGUGGCAA | -0.348 |
| GUGCUACACAUCGUAUGUACCGAAUCGGGGUUUUUUUGGGGAAAAAAAGGGGUUUUUUUGGGGAAAGUAUUAUGUUACGCCGUUCGGAUC | 1.05 |

Some of these lines once more (series 3):
| Strand | E-score |
| --- | --- |
| CCAAATTA | 0.269 |
| GAGGGACA | -0.209 |
| CGATCCTA | -0.135 |
| CCGAATAA | 0.226 |
| ATCGATGC | 0.074 |
| TAAACGTA | 0.273 |
| GACATGGC | -0.0775 |
| GGTGAGTA | -0.0387 |
| AAATTAGC | 0.0825 |
| GCGAGTCC | -0.201 |
| AACGGATA | 0.088 |
| CCCCCAGG | -0.302 |
| ACAGGCAA | 0.0791 |
